# Measurements collected from several papers.
# Protocols differ between the studies behind these lines. “And” joins repeats or separate records; there may be more than shown. ± marks the error that the study gave.
SMILES,tested on,assay,system,setting,scale,endpoint,result
N=C(N)NCc1cn([C@@H]2[C@@H](OCCn3cc(COCCOCCOCCn4cc(-c5cc(OCCOCCO)c(C#Cc6cc(OCCOCCO)c(C#Cc7cc(OCCOCCO)c(-c8cn(CCOCCOCCOCc9cn(CCO[C@H]%10O[C@H](CO)[C@@H](O)[C@H](O)[C@@H]%10n%10cc(CNC(=N)N)nn%10)nn9)nn8)cc7OCCOCCO)cc6OCCOCCO)cc5OCCOCCO)nn4)nn3)O[C@H](CO)[C@@H](O)[C@@H]2O)nn1,L-SIGN (human),viral trans-infection,"Jurkat expressing L-SIGN, Severe acute respiratory syndrome coronavirus 2",rVSV-luc pseudovirus,,IC50,65 nM
Cc1ccc(NS(=O)(=O)c2c(C(=O)N3CCCCCC3)c(C)n(C)c2C)c(Cl)c1,Vaccinia virus,viral infection,HaCaT,"3.704 µM, 36 h",relative to: untreated,infection,2.2% and 4.91% and 2.3%
CC[C@H](C)[C@H](NC(=O)[C@H](CCCCN)NC(=O)[C@H](CCCCN)NC(=O)[C@H](CC(C)C)NC(=O)[C@H](Cc1c[nH]c2ccccc12)NC(=O)CN)C(=O)NCC(=O)N[C@@H](CCCCN)C(=O)N[C@@H](CCCCN)C(=O)N[C@H](C(=O)N[C@@H](CCC(=O)O)C(=O)N[C@@H](CCCNC(=N)N)C(=O)N[C@H](C(=O)NCC(=O)N[C@@H](CCC(N)=O)C(=O)N[C@@H](Cc1c[nH]cn1)C(=O)N[C@H](C(=O)N[C@@H](CCCNC(=N)N)C(=O)N[C@@H](CC(=O)O)C(=O)N[C@@H](C)C(=O)N[C@H](C(=O)N[C@H](C(=O)N[C@@H](CCC(N)=O)C(=O)N[C@H](C(=O)N[C@H](C(=O)NCC(=O)N[C@H](C(=O)N[C@@H](C)C(=O)N[C@@H](CCC(N)=O)C(=O)N[C@@H](CCC(N)=O)C(=O)N[C@@H](C)C(=O)N[C@@H](C)C(=O)N[C@@H](CC(N)=O)C(=O)N[C@H](C(=O)N[C@@H](C)C(=O)N[C@@H](C)C(=O)N[C@H](C(=O)N[C@@H](CC(C)C)C(=O)N[C@@H](CCCCN)C(N)=O)[C@@H](C)O)C(C)C)C(C)C)[C@@H](C)CC)[C@@H](C)O)[C@@H](C)CC)[C@@H](C)O)[C@@H](C)O)C(C)C)[C@@H](C)CC,Escherichia coli,,"isolate RKI 131/03, CAMHB",,,MIC,4 µg/mL
CC[C@H](C)[C@H](NC(=O)[C@H](CCCCN)NC(=O)[C@H](Cc1ccc(O)cc1)NC(=O)[C@H](CCC(N)=O)NC(=O)[C@H](Cc1c[nH]cn1)NC(=O)[C@@H](NC(=O)[C@H](Cc1ccccc1)NC(=O)[C@H](Cc1c[nH]cn1)NC(=O)[C@@H](NC(=O)[C@@H](NC(=O)CNC(=O)[C@H](CCCNC(=N)N)NC(=O)[C@H](Cc1c[nH]c2ccccc12)NC(=O)[C@H](CC(C)C)NC(=O)[C@H](CO)NC(=O)[C@H](CCC(=O)O)NC(=O)[C@H](CC(C)C)NC(=O)[C@H](CCC(=O)O)NC(=O)[C@H](CC(N)=O)NC(=O)[C@H](CC(C)C)NC(=O)[C@H](CC(=O)O)NC(=O)[C@H](CO)NC(=O)[C@H](CCC(=O)O)NC(=O)[C@@H](NC(=O)[C@H](CC(C)C)NC(=O)[C@H](CCC(N)=O)NC(=O)[C@H](CCC(=O)O)NC(=O)[C@H](CCC(=O)O)NC(=O)[C@H](CC(C)C)NC(=O)[C@@H]1CCCN1C(=O)[C@@H](N)Cc1ccccc1)[C@@H](C)O)[C@@H](C)O)[C@@H](C)O)C(C)C)C(=O)N[C@@H](CCSC)C(=O)N1CCC[C@H]1C(=O)N[C@@H](Cc1ccccc1)C(=O)N[C@@H](CCCNC(=N)N)C(=O)N[C@@H](CCCCN)C(=O)N[C@@H](CC(C)C)C(=O)N[C@H](C(=O)N[C@@H](Cc1ccccc1)C(=O)N[C@@H](CCCCN)C(=O)N[C@@H](CCCNC(=N)N)C(=O)N[C@@H](CCCNC(=N)N)C(=O)N[C@@H](CCCCN)C(=O)N[C@@H](CC(N)=O)C(N)=O)C(C)C,Pseudomonas aeruginosa,broth microdilution,ATCC 27853,,,MIC,> 50 µM
CCCCCCCCCCCCCCCCCC(=O)N[C@@H](CCC(=O)NCCCC[C@H](NC(=O)[C@H](CCC(N)=O)NC(=O)[C@H](CCCCN)NC(=O)[C@H](CO)NC(=O)[C@H](CC(C)C)NC(=O)[C@H](CC(=O)O)NC(=O)[C@H](CO)NC(=O)[C@@H](NC(=O)[C@H](Cc1ccccc1)NC(=O)[C@@H](NC(=O)CNC(=O)[C@H](CCC(N)=O)NC(=O)[C@@H](CO)NC(=O)[C@@H](N)Cc1c[nH]cn1)[C@@H](C)O)[C@@H](C)O)C(=O)N[C@@H](CC(=O)O)C(=O)N[C@@H](CCC(=O)O)C(=O)N[C@@H](CCC(N)=O)C(=O)N[C@@H](CC(C)C)C(=O)N[C@@H](C)C(=O)N[C@@H](CCCCN)C(=O)N[C@@H](CC(=O)O)C(=O)N[C@@H](Cc1ccccc1)C(=O)N[C@H](C(=O)N[C@@H](CCC(=O)O)C(=O)N[C@@H](Cc1c[nH]c2ccccc12)C(=O)N[C@@H](CC(C)C)C(=O)N[C@@H](CCCCN)C(=O)N[C@@H](C)C(=O)NCC(=O)NCC(=O)N1CCC[C@H]1C(=O)N[C@@H](CO)C(=O)N[C@@H](CO)C(=O)NCC(=O)N[C@@H](C)C(=O)N1CCC[C@H]1C(=O)N1CCC[C@H]1C(=O)N1CCC[C@H]1C(=O)N[C@@H](CO)C(N)=O)[C@@H](C)CC)C(=O)O,,,"cynomolgus monkey, obese diabetic","dose not given, level returned to on chronic treatment",,blood glucose,~120 mg/dL
COCC(C)N1CCn2cc(C(=O)NCc3ccc(F)cc3F)c(=O)c(O)c2C1=O (stereo not drawn),human immunodeficiency virus 1,single-round vector infection,integrase N155H,,,EC50,5 ± 0.9 nM
Nc1ccn(C2CCC(OC(C(=O)O)P(=O)(O)O)C2)c(=O)n1 (racemic),HIV-1 reverse transcriptase M184V,"enzyme activity, inhibitor",,"added: poly(rI)·oligo(dC), [3H]dCTP",relative to: mutant over wild type,fold resistance,11 fold
O=C(NCc1ccc(F)cc1F)c1cn2ccn(CCCCCO)c(=O)c2c(O)c1=O,human immunodeficiency virus 1,single-round vector infection,integrase G140S/Q148H,,,EC50,626 ± 92.5 nM
Cc1cc(/C=C/C#N)cc(C)c1Nc1nc(Nc2ccc(C#N)cc2)ncc1N,HIV-1,"viral replication, single-round infection",RT mutant Y181C,,,EC50,1.8 ± 0.2 nM
COCCCCCCn1ccn2cc(C(=O)NCc3ccc(F)cc3F)c(=O)c(O)c2c1=O,human immunodeficiency virus 1,single-round vector infection,integrase G140S/Q148H,,,EC50,253 ± 23.4 nM
Cc1cc(/C=C/C#N)cc(C)c1-n1cnc2cnc(Nc3ccc(C#N)cc3)nc21,HIV-1,"viral replication, single-round infection",RT mutant L100I,,,EC50,0.6 ± 0.02 nM
CC(C)n1ccn2cc(C(=O)NCc3ccc(F)cc3F)c(=O)c(O)c2c1=O,human immunodeficiency virus 1,single-round vector infection,integrase N155H,,,EC50,4.3 ± 0.3 nM
CC[C@H](C)[C@H](NC(=O)[C@H](CC(C)C)NC(=O)[C@H](CCCCN)NC(=O)[C@@H](N)CCCCN)C(=O)N[C@H](C(=O)N[C@@H](Cc1ccccc1)C(=O)N[C@H](C(=O)N1CCC[C@H]1C(=O)N[C@@H](CCCCN)C(=O)N[C@@H](CCCCN)C(=O)N[C@H](C(=O)N[C@@H](CCCNC(=N)N)C(=O)N[C@@H](CCC(=O)O)C(=O)N[C@@H](CCCCN)C(=O)N[C@@H](CCCCN)C(=O)N[C@@H](CCCCN)C(=O)N[C@@H](CCC(=O)O)C(=O)N[C@@H](CS)C(=O)N[C@@H](CC(C)C)C(=O)N[C@H](C(=O)O)C(C)C)[C@@H](C)O)[C@@H](C)CC)[C@@H](C)O,TTX-sensitive sodium channel,"resurgent sodium current, open-channel blocker, whole-cell patch clamp",mouse hippocampal CA3 neurons,"200 µM intracellular, 22 °C",,time to peak,0.6 ± 0.1 ms
CC(C)N1CCn2cc(C(=O)NCc3ccc(F)cc3F)c(=O)c(O)c2C1=O,human immunodeficiency virus 1,single-round vector infection,integrase G118R,,,EC50,20.2 ± 1.4 nM
CC[C@H](C)[C@@H]1NC(=O)[C@H](CC(=O)O)NC(=O)[C@H]([C@@H](C)O)NC(=O)[C@@H]2CSSC[C@@H]3NC(=O)[C@H](CC(C)C)NC(=O)[C@H](CC(N)=O)NC(=O)[C@H](CC(C)C)NC(=O)[C@H](CCCNC(=N)N)NC(=O)[C@H](Cc4ccc(O)cc4)NC(=O)[C@H](CCCCN)NC(=O)[C@H](CCSC)NC(=O)[C@H](CO)NC(=O)[C@H]([C@@H](C)O)NC(=O)[C@H](CCCNC(=N)N)NC(=O)[C@H](CSSC[C@H](NC(=O)[C@H]([C@@H](C)O)NC(=O)[C@H](CCCCN)NC(=O)[C@H](CCCNC(=N)N)NC3=O)C(=O)NCC(=O)N[C@@H](CO)C(=O)N[C@H](C(=O)O)CSSC[C@H](NC(=O)[C@@H](NC(=O)[C@@H](N)CCCNC(=N)N)[C@@H](C)O)C(=O)N[C@@H](CCCCN)C(=O)N[C@@H](CC(=O)O)C(=O)N[C@@H](CC(C)C)C(=O)N[C@@H]([C@@H](C)CC)C(=O)N3CCC[C@H]3C(=O)N[C@@H](C(C)C)C(=O)N[C@@H](CO)C(=O)N[C@@H](CCC(=O)O)C(=O)N2)NC(=O)[C@H](CCCNC(=N)N)NC1=O,KcsA-Shaker chimera channel,two-electrode voltage clamp,Xenopus oocytes,"5 nM, 0 mV",,association time constant,126 ± 13 s
